Assay results gathered from unrelated publications.
Numbers after ± are the reported error.

SMILES	organism	assay	system	conditions	EC50
CCOC(=O)[C@@H](C)NP(=O)(CO[C@H](CF)Cn1cnc(N)nc1=O)N[C@H](C)C(=O)OCC	human cytomegalovirus	cytopathic effect	HEL, AD-169	–	> 100 µM
Fc1ccc(-c2cn3cccnc3n2)cc1F	Trypanosoma cruzi	–	3T3 host cells, Tulahuen beta-galactosidase	6 days	> 20 µM
Nc1ncnc2c1c(-c1ccc(Cl)cc1F)cn2[C@@H]1O[C@H](CO)[C@@H](O)[C@H]1O	Trichomonas vaginalis	resorufin	G3, metronidazole-sensitive	24 h + 2 h, 2% O2	0.077 ± 0.013 µM
CC1(C)NCCC[C@]2(C)[C@H]3C=CC4=C5C[C@@](C)(CO)CC[C@]5(C)CC[C@@]4(C)[C@]3(C)CC[C@@H]12	Human cytomegalovirus	cytopathic effect	HFF, AD169	–	> 30 µM
Nc1ncnc2c1c(-c1ccc(OC(F)(F)F)cc1)cn2[C@@H]1O[C@H](CO)[C@@H](O)[C@H]1O	Trichomonas vaginalis	resorufin	G3, metronidazole-sensitive	24 h + 2 h, 2% O2	1.99 ± 0.26 µM
COc1ccc(-n2nc3c(=O)n(Cc4cccc(N)c4)nc(C)c3c2C)cc1	Zika virus	viral replication, immunofluorescence	Vero, MR766	24 h	144 ± 3.9 µM
Nc1ncnc2c1c(-c1cccc(F)c1)cn2[C@@H]1O[C@H](CO)[C@@H](O)[C@H]1O	Trichomonas vaginalis	resorufin	G3, metronidazole-sensitive	24 h + 2 h, 2% O2	1.52 ± 0.029 µM
CC1=C[C@H](O/C=C2/C(=O)O[C@H]3c4ccccc4C[C@@H]23)OC1=O	Phelipanche ramosa	seed germination	–	–	5.3e-06 µM
COc1ccc(-n2nc3c(=O)n(-c4cccc(C(=O)NC(C)C)c4)nc(C)c3c2C)cc1	Zika virus	viral replication, immunofluorescence	Vero, MR766	24 h	105 ± 4.6 µM
Nc1cc2nc(-c3cccc(C(F)(F)F)c3)cn2cn1	Trypanosoma cruzi	–	3T3 host cells, Tulahuen beta-galactosidase	6 days	> 20 µM
CC(C)OC(=O)[C@H](Cc1ccccc1)NP(=O)(COCCn1cnc2c(=O)[nH]c(=O)[nH]c21)N[C@@H](Cc1ccccc1)C(=O)OC(C)C	human cytomegalovirus	cytopathic effect	HEL, AD169	–	63 ± 19 µM
CC1(CCCCCCCCCCOCCCOP(=O)(O)CO[C@H](CO)Cn2ccc(N)nc2=O)COC1	JC polyomavirus	qPCR	COS-7, MAD-4	7 days	0.53 ± 0.66 µM
CNC(=O)c1c(C(C)C)oc2nc(N3CCCC3)ccc12	Trypanosoma cruzi	–	3T3 host cells, Tulahuen beta-galactosidase	6 days	> 20 µM
O=C1C=C[C@@H](O/C=C2/C(=O)O[C@@H]3c4ccccc4C[C@H]23)O1 (racemic)	Phelipanche ramosa	seed germination	–	–	0.00092 µM
C=C(C)[C@@H]1CC[C@]2(C(=O)n3ccnc3)CC[C@]3(C)[C@H](CC[C@@H]4[C@@]5(C)CCCNC(C)(C)[C@@H]5CC[C@]43C)[C@@H]12	Human cytomegalovirus	cytopathic effect	HFF, AD169	–	> 0.24 µM
CC(=O)Nc1cccc(Cn2nc(C)c3c(C)n(-c4ccccc4)nc3c2=O)c1	Zika virus	viral replication, immunofluorescence	Vero, MR766	24 h	204 ± 3.2 µM
Nc1ncnc2c1c(-c1ccc(C(F)(F)F)c(Cl)c1)cn2[C@@H]1O[C@H](CO)[C@@H](O)[C@H]1O	Trichomonas vaginalis	resorufin	G3, metronidazole-sensitive	24 h + 2 h, 2% O2	0.37 ± 0.01 µM
Nc1ccn(C[C@@H](CO)OCP(=O)(O)OCCCS(=O)(=O)CCCCCCCCCCCCC2CCC2)c(=O)n1	JC polyomavirus	qPCR	COS-7, MAD-4	7 days	0.05 ± 0.03 µM
CN(C)Cc1c(-c2ccc(F)c(F)c2)nc2ccccn12	Trypanosoma cruzi	–	3T3 host cells, Tulahuen beta-galactosidase	6 days	> 20 µM
COc1ccc(-n2nc3c(=O)n(Cc4cccc([N+](=O)[O-])c4)nc(C)c3c2C)cc1	Zika virus	viral replication, immunofluorescence	Vero, MR766	24 h	25.6 ± 2.8 µM
CCOC(=O)[C@@H](C)NP(=O)(CO[C@H](CF)CN1CNC(N)=NC1=O)N[C@H](C)C(=O)OCC	human cytomegalovirus	cytopathic effect	HEL, AD-169	–	> 100 µM

SMILES	organism	assay	system	conditions	EC50
CN(C)Cc1cc(/C=C/C(=O)c2ccc(Cl)cc2)ccc1O	Plasmodium knowlesi	parasite growth	–	24 h, blood stage	2.98 µM
COc1cc(Br)c(Nc2nc(-c3c(C)nc4ncccn34)cs2)c(Br)c1	Enterovirus A71	viral RNA accumulation, qRT-PCR	Vero or RD	24 h	0.89 µM
Nc1ncnc2c1c(-c1ncc(Cl)cn1)cn2[C@@H]1O[C@H](CO)[C@@H](O)[C@H]1O	Trichomonas vaginalis	resorufin	G3, metronidazole-sensitive	24 h + 2 h, 2% O2	0.86 ± 0.136 µM
CC(C)c1oc2nc(N3CCCC3)ccc2c1C(=O)O	Trypanosoma cruzi	–	3T3 host cells, Tulahuen beta-galactosidase	6 days	> 20 µM
C=C(C)[C@@H]1CC[C@]2(COS(=O)(=O)c3ccc(C)cc3)CC[C@]3(C)[C@H](CC[C@@H]4[C@@]5(C)CCCNC(C)(C)[C@@H]5CC[C@]43C)[C@@H]12	Human cytomegalovirus	cytopathic effect	HFF, AD169	–	> 1.2 µM
Cc1cc(Cl)cc(-c2cn([C@@H]3O[C@H](CO)[C@@H](O)[C@H]3O)c3ncnc(N)c23)c1	Trichomonas vaginalis	resorufin	G3, metronidazole-sensitive	24 h + 2 h, 2% O2	23.5 ± 0.41 µM
CC1(CCCCCCCCCCCCOCCCOP(=O)(O)CO[C@H](CO)Cn2ccc(N)nc2=O)COC1	JC polyomavirus	qPCR	COS-7, MAD-4	7 days	4.2 ± 4.6 µM
CCOC(=O)c1c(-c2ccc(F)cc2)oc2ncccc12	Trypanosoma cruzi	–	3T3 host cells, Tulahuen beta-galactosidase	6 days	13.8 µM
C=C(C)[C@@H]1CCC=C2CC[C@]3(C)[C@H](CC[C@@H]4[C@@]5(C)CCCNC(C)(C)[C@@H]5CC[C@]43C)[C@H]21	Human cytomegalovirus	cytopathic effect	HFF, AD169	–	> 6 µM
Cc1nn(-c2cccc(C(=O)NC(C)C)c2)c(=O)c2nn(-c3ccccc3)c(C)c12	Zika virus	viral replication, immunofluorescence	Vero, MR766	24 h	87.2 ± 7.3 µM
COc1ccc(-c2cn([C@H]3C[C@H](O)[C@@H](CO)O3)c3ncnc(N)c23)cc1	Trichomonas vaginalis	resorufin	G3, metronidazole-sensitive	24 h + 2 h, 2% O2	1.41 ± 0.34 µM
COc1ccc(S(=O)(=O)NCc2c[nH]nc2-c2cccs2)cc1	Plasmodium falciparum	parasite growth	HC04, NF54	blood stage	0.816 µM
c1ccc(-c2nc(-c3ccc4ccccc4c3)c[nH]2)cc1	Schistosoma mansoni	worm killing	male worms	–	> 100 µM
Cc1cc(-c2cn([C@@H]3O[C@H](CO)[C@@H](O)[C@H]3O)c3ncnc(N)c23)ccc1Cl	Trichomonas vaginalis	resorufin	G3, metronidazole-sensitive	24 h + 2 h, 2% O2	0.14 ± 0.014 µM
C[C@H]1[C@H](C)CC[C@]2(CO)CC[C@]3(C)C(=CC[C@@H]4[C@@]5(C)CCCNC(C)(C)[C@@H]5CC[C@]43C)[C@H]12	Human cytomegalovirus	cytopathic effect	HFF, AD169	–	0.11 µM
Cc1nn(-c2cccc(C(=O)O)c2)c(=O)c2nn(-c3ccccc3)c(C)c12	Zika virus	viral replication, immunofluorescence	Vero, MR766	24 h	> 1000 µM
Cc1ccc2nc(-c3ccc(Cl)cc3)c(CN3CCN(c4cccc(C(F)(F)F)c4)CC3)n2c1	Trypanosoma cruzi	–	3T3 host cells, Tulahuen beta-galactosidase	6 days	1.7 µM
O=C1OC2(c3ccccc31)c1cc([N+](=O)[O-])c(O)c(Br)c1Oc1c2cc([N+](=O)[O-])c(O)c1Br	Zika virus	viral replication, plaque reduction	A549, PRVABC59	–	> 15 µM
CCOC(=O)c1c(C(C)C)oc2nc(N3CCCC3)ccc12	Trypanosoma cruzi	–	3T3 host cells, Tulahuen beta-galactosidase	6 days	4.5 µM
C=C(C)[C@@H]1CC[C@]2(C(=O)N3CCN(C)CC3)CC[C@]3(C)[C@H](CC[C@@H]4[C@@]5(C)CCCNC(C)(C)[C@@H]5CC[C@]43C)[C@@H]12	Human cytomegalovirus	cytopathic effect	HFF, AD169	–	> 30 µM
CC1COCCN1c1nc(NCc2cccnc2C(F)(F)F)c2cccnc2n1 (stereo not drawn)	Wolbachia pipientis	infected cells, high-content imaging	C6/36 cells, wAlbB	–	0.0026 ± 0.0005 µM

Excerpt of the above:
SMILES	organism	assay	system	conditions	EC50
CC1COCCN1c1nc(NCc2cccnc2C(F)(F)F)c2cccnc2n1 (stereo not drawn)	Wolbachia pipientis	infected cells, high-content imaging	C6/36 cells, wAlbB	–	0.0026 ± 0.0005 µM
COc1ccc(-n2nc3c(=O)n(Cc4cccc(N)c4)nc(C)c3c2C)cc1	Zika virus	viral replication, immunofluorescence	Vero, MR766	24 h	144 ± 3.9 µM
O=C1C=C[C@@H](O/C=C2/C(=O)O[C@@H]3c4ccccc4C[C@H]23)O1 (racemic)	Phelipanche ramosa	seed germination	–	–	0.00092 µM
Nc1ncnc2c1c(-c1cccc(F)c1)cn2[C@@H]1O[C@H](CO)[C@@H](O)[C@H]1O	Trichomonas vaginalis	resorufin	G3, metronidazole-sensitive	24 h + 2 h, 2% O2	1.52 ± 0.029 µM
CCOC(=O)[C@@H](C)NP(=O)(CO[C@H](CF)CN1CNC(N)=NC1=O)N[C@H](C)C(=O)OCC	human cytomegalovirus	cytopathic effect	HEL, AD-169	–	> 100 µM
